Published values gathered from unrelated publications.
± marks the error that the study gave.

With `O=C(O)C[C@H](O)C[C@H](O)/C=C/c1c(C2CC2)nc2ccccc2c1-c1ccc(F)cc1` the metabolic activity was 0.95 ± 0.05 (COS-7; WST-8; 30 µM, 24 h, 0.1% DMSO, unit not given; baseline: vehicle control).
With `O=C(O)c1cc(O)c2c(c1)C(=O)c1cccc(O)c1C2=O` the cell viability was 16.4 ± 2.2% (HepaRG co-cultured with HK-2; MTT; 66.67 µM, 48 h; baseline: untreated control).
`CC(C)C[C@H](NC(=O)C[C@H](O)[C@H](CC(C)C)NC(=O)[C@H](Cc1c[nH]cn1)NC(=O)CNC(=O)[C@@H](NC(=O)[C@H](C)NC(=O)[C@H](Cc1c[nH]c2ccccc12)NC(=O)[C@H](CCC(N)=O)NC(=O)[C@@H](Cc1ccccc1)NC(=O)COCCOCCNC(=O)CCC(C(=O)O)N1CCN(CC(=O)O)CCN(CC(=O)O)CCN(CC(=O)O)CC1)C(C)C)C(N)=O` (stereo partly drawn) [lutetium-177 labelled] gave a tissue uptake of 0.4 ± 0.1 %ID/g (BALB/c nu/nu mice, spleen; intravenous, 50 pmol, 1 h, together with: PA 300 µg).
For `Cc1onc(-c2ccccc2)c1-c1ccc(S(N)(=O)=O)cc1`, the metabolic activity was 0.92 ± 0.11 (COS-7; WST-8; 100 µM, 24 h, 0.1% DMSO, unit not given; baseline: control).
Under “patients with blood or lymphatic AEs”, `Cc1cc(Nc2ccc(S(F)(F)(F)(F)F)cc2)n2nc(C(C)(F)F)nc2n1` is recorded as 0% (Plasmodium vivax; human Plasmodium vivax malaria patients; oral, 600 mg).
`COc1c(O[C@@H]2O[C@H](CO)[C@@H](O)[C@H](O)[C@H]2O)c(C)cc2c1C(=O)c1c(O)cccc1C2=O` has a cell viability of 60.3 ± 9.01% (HepaRG co-cultured with HK-2; MTT; 66.67 µM, 48 h; baseline: untreated control).
For `CC(C)C[C@H](NC(=O)C[C@H](O)[C@H](CC(C)C)NC(=O)[C@H](Cc1c[nH]cn1)NC(=O)CNC(=O)[C@@H](NC(=O)[C@H](C)NC(=O)[C@H](Cc1c[nH]c2ccccc12)NC(=O)[C@H](CCC(N)=O)NC(=O)[C@@H](Cc1ccccc1)NC(=O)COCCOCCNC(=O)CCC(C(=O)O)N1CCN(CC(=O)O)CCN(CC(=O)O)CC1)C(C)C)C(N)=O` (stereo partly drawn) [lutetium-177 labelled], the tissue uptake was 0.04 ± 0.009 %ID/g (female BALB/c nu/nu mice, spleen; intravenous, 50 pmol, 24 h).
`CCN(CC)CCCC(C)Nc1ccnc2cc(Cl)ccc12` (stereo not drawn) gave a necrotic cells of 0.31 ± 0.16 (COS-7; 50 µM, 24 h, 0.1% DMSO, unit not given; baseline: vehicle control).
`CCc1cc(C(=O)NC)c2nccc(N3CCc4c(cc(Cn5ccnc5)cc4-c4cn(C)nc4C(F)(F)F)C3=O)c2c1` — result for “lung weight change”: -5.55% (Sprague Dawley rat; oral, 100 mg/kg twice daily, 7 days; baseline: vehicle).
The cell viability of `COc1c(O)c(C)cc2c1C(=O)c1c(cc(O)c(O)c1O)C2=O` is reported as 63 ± 9.83% (HepaRG co-cultured with HK-2; MTT; 33.33 µM, 24 h; baseline: untreated control).
`CN1CCN(c2cnc3c(cc(C(=O)NCc4ccc(Cl)cc4)c(=O)n3CC(=O)N3CC(C)(F)C3)n2)C1=O` gave a selectivity ratio of greater than 201 (human cytomegalovirus; MRC-5, Davis; baseline: CC50 over EC50).
`COc1cccc2c(Nc3ccc4[nH]c(C(=O)N/N=C/c5ccc(SC)cc5)cc4c3)cc(C)nc12` has a necrotic cells of 0.61 ± 0.23 (COS-7; 3 µM, 24 h, 0.1% DMSO, unit not given; baseline: vehicle control).
`Cn1cc(-c2ccc(-c3cncc(Cl)c3N3CCC4(CCNC4=O)CC3)cc2)cn1` — result for “fold change in expression”: 3.22 (COLO 205; microarray, refers to: ASS1; concentration not given, 6 h, gene set ASSY; baseline: untreated cells).
For `COc1c(O)c(C)cc2c1C(=O)c1c(ccc(O)c1O)C2=O`, the cell viability was 89.3 ± 5.72% (HepaRG co-cultured with HK-2; MTT; 16.67 µM, 24 h; baseline: untreated control).
`Nc1ncn([C@@H]2O[C@H](CO)[C@@H](O)[C@H]2O)c(=O)n1` has a viability of 186% (OCI-Ly1; 0.1 µM, 120 h).
`CCN1CCN(c2cc(N3CCN(CC)CC3)nc(NCCNc3ccnc4cc(Cl)ccc34)n2)CC1` gave an apoptotic cells of 8.49 ± 1.6 (COS-7; 30 µM, 24 h, 0.1% DMSO, unit not given; baseline: vehicle control).
`C=C1C(=O)O[C@@H](CCC)[C@@H]1C(=O)O` (racemic) has a viability of 151% (OCI-Ly1; 1 µM, 120 h).
`COc1cnc2c(cc(C(=O)NCc3ccc(Cl)cc3)c(=O)n2CC(=O)N2CC(C)(F)C2)n1` gave a selectivity ratio of greater than 106 (human cytomegalovirus; MRC-5, AD169-GFP; baseline: CC50 over EC50).
The cell viability of `COc1cc2c(c(OC)c1OC)C(=O)c1c(cc(C)c(O)c1OC)C2=O` is reported as 77.7 ± 7.2% (HepaRG co-cultured with HK-2; MTT; 66.67 µM, 48 h; baseline: untreated control).
`O=C(O)CCC(=O)O.[2H]C([2H])([2H])Oc1cc(C)c2[nH]ccc2c1CN1CC[C@@H](C2CC2)C[C@H]1c1ccc(C(=O)O)cc1` — result for “subjects with elevated ALT TEAE”: 0% (multiple ascending dose; healthy Chinese subjects; 200 mg once daily).
`CC[C@H](CO)N(CCN(N=O)[C@H](CC)CO)N=O` — result for “revertant colonies per plate”: 33.3 ± 2 (Salmonella typhimurium; mutagenicity, Ames plate incorporation; TA1535; 2500 µg/plate, without S9, methanol).

Some of these lines once more:
`C=C1C(=O)O[C@@H](CCC)[C@@H]1C(=O)O` (racemic) has a viability of 151% (OCI-Ly1; 1 µM, 120 h).
`COc1cnc2c(cc(C(=O)NCc3ccc(Cl)cc3)c(=O)n2CC(=O)N2CC(C)(F)C2)n1` gave a selectivity ratio of greater than 106 (human cytomegalovirus; MRC-5, AD169-GFP; baseline: CC50 over EC50).
